Measurements of several laboratories.
Parts stem from different laboratories: compare values within a part only. Positions count from the first letter of the parent shown.

Series 1
Target: Fragile X messenger ribonucleoprotein 1, C-terminal low-complexity region (Fmr1, Mus musculus, UniProt P35922)
Method: RNA Bind-n-Seq
Form: RNA
Sample: in vitro
Tested at: 200 nM
Setting: whole 134-nt RNA, ends assumed
With: 150 mM LiCl
Relative to: input library
Direction: higher = stronger binding
Library: 7-deaza-guanosine replaces G
Shared flanks, not repeated: GGGAGUUCUACAGUCCGACGAUC … UGGAAUUCUCGGGUGUCAAGG
Strand | log2 enrichment
CCUCAAGUCCUGUGCUACACAUCGUAUGUACCGAAUCGGUGGUUUUUGGAGGAAAGUAUUAUGUUACGCCGUUCGGAUCUGCACUUCCAG | 0.545
UAACUUUAGAGGAGGAUCUGAUGGAUAUGGCAGUGGACGUGUAUUUGGGGAUGGCUAUAAUGGGUAUGGAGGAGGACCUGGAGGUGGCAA | 0.284
UUUGGCAAUGAGAUCUAAACCAGACAAAGACCUCCUUAUGGAAGAAGAUGACAUGGCCUUGGCAAAUGUAGUCAUGCAGGAAGCUCAGAA | -1.54
UCCUGUGCUACACAUCGUAUGUACCGAAUCGGAAAAAAGGGGAAAAAAGGGAAAAAAGGGAAAGUAUUAUGUUACGCCGUUCGGAUCUGC | -0.331
UAACUUUAGAGGAGGAUCUGAUGGAUGUGGCAGUGGACGUGGAUUUGGGGAUGGCUAUAAUGGGUAUGGAGGAGGACCUGGAGGUGGCAA | 0.818
UGGUAGGUGGAUUUUGUUUAUUUUUUUAGCUCAUUUCCAGGGGUGGGAAUUUUUUUUUAAUAUGUGUCAUGAAUAAAGUUGUUUUUGAAA | 0.812
GUCCUGUGCUACACAUCGUAUGUACCGAAUCGGGGUGGGGUUUUUGGGGAAAAAGGGGAAAGUAUUAUGUUACGCCGUUCGGAUCUGCAC | -0.193
GCAGGAAGUAAAAACAAAUGGAAAUGCUUCGGAUAGUGGCAGGGGUGGGGGUUGCUAAGGAAAAAGUGGGAUGGGAGUGGGUAAAGAGUU | 1.75

Series 2
Target: Histone acetyltransferase KAT6A, winged helix 2, GST fusion (KAT6A, Homo sapiens, UniProt Q92794, residues 85-181)
Method: protein binding microarray
Form: double-stranded DNA, one strand shown
Sample: in vitro
Tested at: not given
Setting: 8-mer, flanks averaged, mean of 2 arrays, mostly near background
Relative to: not given
Direction: higher = stronger binding
Residues (chain): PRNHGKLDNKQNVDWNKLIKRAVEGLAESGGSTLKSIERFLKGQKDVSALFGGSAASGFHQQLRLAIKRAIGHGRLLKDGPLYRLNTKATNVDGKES
Strand | E-score
CGGATGAC | 0.0513
AACAGTCG | -0.05
ACAGCACC | -0.00388
GACCCCGC | 0.0857
ACATTCCG | -0.115
ATCCGAAA | 0.047
CAAACTCA | 0.133
CCGAACGC | 0.115
AGACTTCC | -0.258
TAGCCGAA | -0.0799
CTCAACTC | -0.0158
AGGCAAGC | -0.00979
CGTAAACA | 0.00295
ATGCCCTA | -0.0879
AGCCCAGG | 0.0698
GGAGACAC | 0.015
GAGAGTTA | -0.14
AGACAACT | -0.0246
CCCCCCCG | 0.0225
AATTTCGA | -0.033
ATGATGCA | 0.00685
CTCGTGCA | 0.0675
CTGGCTGC | 0.0279
ACCGGTAC | -0.229
GGGGCGGA | 0.147

Series 3
Target: BATF, bZIP domain (human)
Method: DHFR protein complementation
Sample: yeast
Setting: single substitutions, most at no-binding floor
Relative to: wild-type JUN-FOS pair
Direction: higher = stronger binding
Starting sequence: JUN, bZIP domain (human); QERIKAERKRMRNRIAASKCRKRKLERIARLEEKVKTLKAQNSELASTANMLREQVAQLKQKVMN; partner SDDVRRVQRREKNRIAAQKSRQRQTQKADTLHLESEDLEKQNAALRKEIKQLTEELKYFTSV
Substitution | binding fitness [natural log]
A57R | -0.0792
A57M | -0.0643
T37D | 0.0296
E33M | -0.1
L45F | -0.402
Q41E | 0.0524
T37A | 0.0794
T37N | 0.122
Q41G | -0.594
M51T | 0.0725
S43N | 0.0276
M51R | 0.0684
L52C | -1.09
E32L | -0.116
A40M | -0.0974
E32C | -0.298
E33L | -0.0737
E54P | -1.14
L59N | -0.296
T37E | 0.0658
A57L | -0.121
K34N | -0.0459
S47Y | -0.0493
E54T | -0.0621
V35D | -0.934

Series 4
Target: Interferon regulatory factor 5, full length, phosphomimetic (IRF5, Homo sapiens, UniProt Q13568-2, residues 1-514, K96S/S451D/S453D/S456D/S462D)
Method: protein-binding microarray
Form: double-stranded DNA, one strand shown
Sample: in vitro
Tested at: 250 nM
Setting: 60-bp whole probe
With: salmon DNA 0.4 mg/ml
Relative to: random background probes
Direction: higher = stronger binding
Shared flanks, not repeated: GCCTAGCAC … GTCTTGATTCGCTTGACGCTGCTG
Strand | log fluorescence
TCACCTCTCCCCTCTTGTACTGTGCTA | -0.125 z-score
GACGGTCTCGGAATCGGGACGTGCTAG | 0.144 z-score
TCAGATGCCTTTCTCTTACTGTGCTAG | 0.787 z-score
CTGAGAATGGGGTTTGCAGCCGTGCTA | -0.616 z-score
TCAAGCAAAAATGATTGACTGTGCTAG | 0.36 z-score
TCAATCATCCGTTTCTTACTGTGCTAG | 1.08 z-score
TTAGATCTCAGTTACGATTAGTGCTAG | 0.488 z-score
TGAGATATCAGTTTCGATTAGTGCTAG | 9.72 z-score
CATTTTTTTTTTCTACTTCTGTGCTAG | 1.43 z-score
TCAGCTTTCCTCGTGATACTGTGCTAG | 0.521 z-score
TTAGAACGGAGACTGGATTAGTGCTAG | -0.274 z-score
GCCTCTAGGTTTTCTGGAGACGTGCTA | -0.185 z-score
GCAACACTCACCATGGCTAGGTGCTAG | -0.318 z-score
GACGGACTGGGTTATCGGGACGTGCTA | -0.146 z-score
TTAAGTTTCGGGTATCGGTTAGTGCTA | 10.3 z-score
TCAATGTTCCCTATTTAACTGTGCTAG | 0.626 z-score
